# Assay results gathered from unrelated publications.
# Protocols differ between the studies behind these lines. ± gives the spread as reported.
# CYP2C8: Cytochrome P450 2C8 (CYP2C8, Homo sapiens, UniProt P10632)
# Sequence of UniProt P10632 (whole entry, looked up): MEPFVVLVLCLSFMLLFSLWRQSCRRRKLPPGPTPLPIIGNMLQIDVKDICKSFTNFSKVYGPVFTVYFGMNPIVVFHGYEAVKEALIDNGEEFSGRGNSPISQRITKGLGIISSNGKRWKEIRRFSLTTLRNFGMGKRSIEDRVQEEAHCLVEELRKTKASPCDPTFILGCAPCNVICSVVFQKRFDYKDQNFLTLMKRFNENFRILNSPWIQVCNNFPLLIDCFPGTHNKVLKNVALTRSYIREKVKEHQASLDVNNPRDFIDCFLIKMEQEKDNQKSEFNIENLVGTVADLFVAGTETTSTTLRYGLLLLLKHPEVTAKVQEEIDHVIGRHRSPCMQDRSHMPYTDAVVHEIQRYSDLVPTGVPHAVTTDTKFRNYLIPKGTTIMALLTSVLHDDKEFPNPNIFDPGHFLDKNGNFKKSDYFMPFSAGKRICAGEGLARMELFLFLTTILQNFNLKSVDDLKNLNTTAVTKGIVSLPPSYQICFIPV
# Sequence of UniProt P08684 (whole entry, looked up): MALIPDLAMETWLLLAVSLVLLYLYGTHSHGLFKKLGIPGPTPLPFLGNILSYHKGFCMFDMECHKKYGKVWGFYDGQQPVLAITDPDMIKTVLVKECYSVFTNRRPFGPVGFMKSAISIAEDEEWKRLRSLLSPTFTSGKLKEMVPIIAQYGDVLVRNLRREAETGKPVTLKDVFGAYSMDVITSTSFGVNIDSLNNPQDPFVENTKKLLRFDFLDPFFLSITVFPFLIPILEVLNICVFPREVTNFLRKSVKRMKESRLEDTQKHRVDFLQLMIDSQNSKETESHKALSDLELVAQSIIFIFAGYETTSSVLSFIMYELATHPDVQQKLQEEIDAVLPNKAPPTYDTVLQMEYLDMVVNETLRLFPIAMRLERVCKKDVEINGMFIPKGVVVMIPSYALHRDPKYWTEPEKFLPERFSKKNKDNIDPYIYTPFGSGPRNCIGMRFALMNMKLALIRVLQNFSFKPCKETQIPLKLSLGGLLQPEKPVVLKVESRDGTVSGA
SMILES,tested on,assay,test system,setting,scale,measurement,value
CNC(=O)c1ccc(-c2cnc3ncc(Cc4ccc5ncccc5c4)n3n2)cc1F,,refers to: Anemia,hepatocellular carcinoma patients,"oral, 600 mg twice daily, expansion cohort, grade 3-4",,patients with adverse event,9%
COC[C@@H](c1ccc(C(F)(F)F)cc1)N1CCN(C2(C)CCN(C(=O)c3c(C)ncnc3C)CC2)C[C@@H]1C,HIV-1,viral load,HIV-infected patients,week 2,,Cmax breakpoint for response,72.4 ng/mL
Nc1ccn([C@H]2CC[C@@H](CO)O2)c(=O)n1,HIV-1,MTT,"MT4, RT A98G/V106I/V179D/Y181C/G333E mutant",,reference: CC50 over EC50,selectivity index,> 265
Cc1cc(Nc2ccc(S(F)(F)(F)(F)F)cc2)n2nc(C(C)(F)F)nc2n1,Plasmodium vivax,12-lead ECG,malaria patients,"oral, 600 mg, increase above 30 ms",,patients with QTcF increase,0%
CC[C@H]1[C@@H](O)[C@@H]2[C@H](CC[C@]3(C)[C@@H]([C@H](C)CCNC(=O)NS(=O)(=O)c4ccc(C(C)(C)C)cc4)CC[C@@H]23)[C@@]2(C)CC[C@@H](O)C[C@@H]12,"Cytochrome P450 3A4 (CYP3A4, Homo sapiens, UniProt P08684)",substrate,"human, plasma","10 mg, alone, study day 1",,AUC(0-inf) geometric mean,360 ng·h/mL
CC(=O)OC[C@H]1O[C@@H]([S-])[C@H](OC(C)=O)[C@@H](OC(C)=O)[C@@H]1OC(C)=O.CCP(CC)CC.[Au+],Toxoplasma gondii,bradyzoite growth,,"glutamine-induced bradyzoites, glucose-free medium",,EC50,0.38 µM
Cn1c(Cn2ccc(C(F)(F)F)c(Oc3cc(Cl)cc(C#N)c3)c2=O)n[nH]c1=O,HIV-1,MTT,"MT4, RT A98G/V106I/V179D/Y181C/G333E mutant",,reference: CC50 over EC50,selectivity index,> 265
CCNCc1nc2c(N)nc3ccccc3c2n1CC(C)(C)O,Toxoplasma gondii,"parasite growth, luciferase reporter","HFF, tachyzoite",72 h,,EC50,30 µM
CCOc1cc(CC(=O)N[C@@H](CC(C)C)c2ccccc2N2CCCCC2)ccc1C(=O)O,CYP2C8,,"human, plasma","0.5 mg, day 1, arithmetic mean",,CL/F,46.9 L/h
CC(=NNC(=O)COc1ccc2c(C)c(Cc3ccccc3)c(=O)oc2c1C)c1ccc(Br)cc1,HPrEC normal prostate epithelial cells,MTT,,"0.4 µg/mL, 2% serum",,viability,86.1%
Cc1cn([C@H]2C[C@H](N=[N+]=[N-])[C@@H](CO)O2)c(=O)[nH]c1=O,HIV-1,,"MT4, IIIB wild type",,reference: CC50 over EC50,selectivity index,> 183
Cc1cc(Nc2ncnc3ccc(NC4=NC(C)(CO)CO4)cc23)ccc1Oc1ccn2ncnc2c1 (stereo not shown),CYP2C8,,"human, plasma","oral, 300 mg tucatinib single dose, day 1, arithmetic mean",,AUC(0-last),450 ng·h/mL
Nc1ccn([C@@H]2CS[C@H](CO)O2)c(=O)n1,HIV-1,MTT,"MT4, RT A98G/V106I/V179D/Y181C/G333E mutant",,reference: CC50 over EC50,selectivity index,> 69
Cc1cc(Nc2ncnc3ccc(NC4=NC(C)(C)CO4)cc23)ccc1Oc1ccn2ncnc2c1,CYP2C8,,"human, plasma","oral, 300 mg single dose, day 1, median",,Tmax,1 h
C#Cc1cccc(Nc2ncnc3cc(OCCOC)c(OCCOC)cc23)c1,HPrEC normal prostate epithelial cells,MTT,,"100 µg/mL, 2% serum",,viability,39.6%
CC[C@H](CO)N(CCN(N=O)[C@H](CC)CO)N=O,Salmonella typhimurium,"mutagenicity, Ames plate incorporation",TA100,"1500 µg/plate, without S9, methanol",,revertant colonies per plate,160 ± 8

# Excerpt of the above:
SMILES,tested on,assay,test system,setting,scale,measurement,value
Cc1cn([C@H]2C[C@H](N=[N+]=[N-])[C@@H](CO)O2)c(=O)[nH]c1=O,HIV-1,,"MT4, IIIB wild type",,reference: CC50 over EC50,selectivity index,> 183
Cc1cc(Nc2ncnc3ccc(NC4=NC(C)(CO)CO4)cc23)ccc1Oc1ccn2ncnc2c1 (stereo not shown),CYP2C8,,"human, plasma","oral, 300 mg tucatinib single dose, day 1, arithmetic mean",,AUC(0-last),450 ng·h/mL
